Results pooled from the literature.
Each line is one published result; not all experiments were run side by side. Numbers after ± are the reported error.
YWHAZ: 14-3-3 protein zeta/delta (YWHAZ, Homo sapiens, UniProt P63104)
UniProt P63104, sequence (whole entry, looked up): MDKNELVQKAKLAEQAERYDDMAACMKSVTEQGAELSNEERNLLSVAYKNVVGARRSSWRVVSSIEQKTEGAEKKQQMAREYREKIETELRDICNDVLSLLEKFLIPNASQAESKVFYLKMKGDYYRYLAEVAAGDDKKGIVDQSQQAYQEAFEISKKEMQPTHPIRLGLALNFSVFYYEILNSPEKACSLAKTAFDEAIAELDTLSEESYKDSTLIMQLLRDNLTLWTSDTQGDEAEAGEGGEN
UniProt Q8NB78, sequence (whole entry, looked up): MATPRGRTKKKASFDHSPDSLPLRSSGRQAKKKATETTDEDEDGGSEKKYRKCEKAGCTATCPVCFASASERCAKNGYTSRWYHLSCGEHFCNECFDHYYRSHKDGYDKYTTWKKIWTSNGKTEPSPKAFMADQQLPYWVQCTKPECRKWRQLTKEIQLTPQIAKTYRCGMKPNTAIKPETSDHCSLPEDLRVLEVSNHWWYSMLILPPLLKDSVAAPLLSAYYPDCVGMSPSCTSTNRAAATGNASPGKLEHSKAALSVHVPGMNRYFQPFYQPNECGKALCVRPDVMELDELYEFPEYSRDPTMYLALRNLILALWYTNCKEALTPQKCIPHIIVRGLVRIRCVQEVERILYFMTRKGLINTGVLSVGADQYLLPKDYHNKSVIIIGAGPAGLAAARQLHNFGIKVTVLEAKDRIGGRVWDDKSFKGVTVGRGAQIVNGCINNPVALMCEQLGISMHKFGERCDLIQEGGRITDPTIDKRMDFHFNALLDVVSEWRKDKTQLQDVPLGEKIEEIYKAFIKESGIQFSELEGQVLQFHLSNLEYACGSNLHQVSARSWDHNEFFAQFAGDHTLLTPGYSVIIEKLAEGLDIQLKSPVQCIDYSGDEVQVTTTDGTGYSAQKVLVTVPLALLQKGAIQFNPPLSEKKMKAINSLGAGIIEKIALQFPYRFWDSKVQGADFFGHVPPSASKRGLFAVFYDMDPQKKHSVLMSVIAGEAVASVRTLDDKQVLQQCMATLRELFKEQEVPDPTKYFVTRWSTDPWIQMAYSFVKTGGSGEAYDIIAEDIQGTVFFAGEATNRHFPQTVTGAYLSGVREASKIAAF
UniProt P62942, sequence (whole entry, looked up): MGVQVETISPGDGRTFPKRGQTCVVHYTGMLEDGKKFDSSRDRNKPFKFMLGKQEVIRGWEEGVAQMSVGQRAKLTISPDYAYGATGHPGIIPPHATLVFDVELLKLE
UniProt Q05097, sequence (whole entry, looked up): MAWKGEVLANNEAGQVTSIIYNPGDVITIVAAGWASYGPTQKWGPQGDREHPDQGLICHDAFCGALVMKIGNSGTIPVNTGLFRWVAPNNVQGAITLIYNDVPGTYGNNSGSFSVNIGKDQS
UniProt Q04609, sequence (whole entry, looked up): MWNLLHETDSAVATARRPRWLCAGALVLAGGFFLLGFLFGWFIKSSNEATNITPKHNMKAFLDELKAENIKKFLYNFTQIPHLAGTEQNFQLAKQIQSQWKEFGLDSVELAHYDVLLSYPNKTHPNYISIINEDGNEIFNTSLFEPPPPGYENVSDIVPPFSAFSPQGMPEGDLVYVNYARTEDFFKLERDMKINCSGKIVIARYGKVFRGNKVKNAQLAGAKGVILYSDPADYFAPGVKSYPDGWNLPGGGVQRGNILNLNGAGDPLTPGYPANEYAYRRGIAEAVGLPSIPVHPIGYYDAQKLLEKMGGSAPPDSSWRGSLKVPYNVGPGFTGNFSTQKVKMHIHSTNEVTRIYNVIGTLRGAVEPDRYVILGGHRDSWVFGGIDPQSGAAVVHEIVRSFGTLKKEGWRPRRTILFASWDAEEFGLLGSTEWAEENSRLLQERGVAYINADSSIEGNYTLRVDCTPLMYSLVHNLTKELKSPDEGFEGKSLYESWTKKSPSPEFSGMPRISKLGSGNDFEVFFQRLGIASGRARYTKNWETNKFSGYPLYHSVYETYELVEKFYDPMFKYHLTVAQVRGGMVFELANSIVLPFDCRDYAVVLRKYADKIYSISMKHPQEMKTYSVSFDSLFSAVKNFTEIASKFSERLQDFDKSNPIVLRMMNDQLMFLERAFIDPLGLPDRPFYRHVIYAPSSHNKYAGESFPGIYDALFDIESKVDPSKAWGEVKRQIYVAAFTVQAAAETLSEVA
UniProt P78417, sequence (whole entry, looked up): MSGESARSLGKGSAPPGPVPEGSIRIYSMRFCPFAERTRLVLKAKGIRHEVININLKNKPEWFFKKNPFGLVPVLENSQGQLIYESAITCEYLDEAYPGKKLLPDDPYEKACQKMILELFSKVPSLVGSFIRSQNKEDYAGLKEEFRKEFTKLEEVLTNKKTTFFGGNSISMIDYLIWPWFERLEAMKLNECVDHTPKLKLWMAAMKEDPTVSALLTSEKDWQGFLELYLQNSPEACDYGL
UniProt Q15691, sequence (whole entry, looked up): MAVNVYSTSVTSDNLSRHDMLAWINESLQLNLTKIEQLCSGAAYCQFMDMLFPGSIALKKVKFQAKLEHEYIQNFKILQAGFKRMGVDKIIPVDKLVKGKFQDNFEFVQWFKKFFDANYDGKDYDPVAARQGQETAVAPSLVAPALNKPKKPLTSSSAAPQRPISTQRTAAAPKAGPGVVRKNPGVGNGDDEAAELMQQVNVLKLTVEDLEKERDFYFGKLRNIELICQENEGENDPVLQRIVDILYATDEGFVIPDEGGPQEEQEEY
UniProt P01024, sequence (whole entry, unmodified, looked up): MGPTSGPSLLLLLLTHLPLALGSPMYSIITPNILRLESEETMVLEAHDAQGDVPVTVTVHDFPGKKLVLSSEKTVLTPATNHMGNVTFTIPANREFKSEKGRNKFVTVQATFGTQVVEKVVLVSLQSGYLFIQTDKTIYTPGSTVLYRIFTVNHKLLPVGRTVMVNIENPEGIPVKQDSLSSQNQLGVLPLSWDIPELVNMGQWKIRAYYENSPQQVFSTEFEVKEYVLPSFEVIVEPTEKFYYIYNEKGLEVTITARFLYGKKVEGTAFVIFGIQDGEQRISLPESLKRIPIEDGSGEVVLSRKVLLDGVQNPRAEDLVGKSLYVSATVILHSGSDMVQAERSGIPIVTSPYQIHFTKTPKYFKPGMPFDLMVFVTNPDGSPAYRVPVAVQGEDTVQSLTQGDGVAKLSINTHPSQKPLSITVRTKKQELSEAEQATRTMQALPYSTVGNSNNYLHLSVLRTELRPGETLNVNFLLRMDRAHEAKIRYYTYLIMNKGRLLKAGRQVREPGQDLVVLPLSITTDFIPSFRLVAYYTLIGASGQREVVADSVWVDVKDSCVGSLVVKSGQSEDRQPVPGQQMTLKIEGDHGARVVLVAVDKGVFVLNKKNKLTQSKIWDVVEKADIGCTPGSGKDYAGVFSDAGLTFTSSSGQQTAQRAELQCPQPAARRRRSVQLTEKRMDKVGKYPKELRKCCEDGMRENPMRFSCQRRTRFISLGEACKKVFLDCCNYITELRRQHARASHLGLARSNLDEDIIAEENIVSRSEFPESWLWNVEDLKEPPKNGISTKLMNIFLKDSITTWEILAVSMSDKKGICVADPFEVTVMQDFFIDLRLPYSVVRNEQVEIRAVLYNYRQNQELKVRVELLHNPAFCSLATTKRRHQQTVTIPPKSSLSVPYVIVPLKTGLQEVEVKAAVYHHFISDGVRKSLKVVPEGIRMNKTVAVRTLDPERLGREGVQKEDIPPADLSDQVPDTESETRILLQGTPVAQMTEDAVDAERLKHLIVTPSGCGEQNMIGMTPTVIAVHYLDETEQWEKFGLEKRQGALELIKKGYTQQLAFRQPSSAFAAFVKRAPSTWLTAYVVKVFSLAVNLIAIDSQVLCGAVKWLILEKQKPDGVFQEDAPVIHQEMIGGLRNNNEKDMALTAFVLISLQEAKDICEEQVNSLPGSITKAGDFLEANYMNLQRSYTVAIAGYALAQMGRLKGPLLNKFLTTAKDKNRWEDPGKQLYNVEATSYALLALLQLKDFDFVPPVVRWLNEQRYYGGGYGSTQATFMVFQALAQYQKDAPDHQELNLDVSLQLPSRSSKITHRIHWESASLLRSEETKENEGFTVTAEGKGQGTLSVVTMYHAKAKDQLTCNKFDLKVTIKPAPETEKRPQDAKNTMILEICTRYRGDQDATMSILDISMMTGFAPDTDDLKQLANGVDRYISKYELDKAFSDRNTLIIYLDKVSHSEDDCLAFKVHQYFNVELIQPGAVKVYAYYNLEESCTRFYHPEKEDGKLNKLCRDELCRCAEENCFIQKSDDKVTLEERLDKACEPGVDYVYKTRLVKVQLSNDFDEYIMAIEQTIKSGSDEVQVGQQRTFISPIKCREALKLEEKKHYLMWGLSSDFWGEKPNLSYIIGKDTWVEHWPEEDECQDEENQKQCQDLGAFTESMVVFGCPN
UniProt P08246, sequence (whole entry, looked up): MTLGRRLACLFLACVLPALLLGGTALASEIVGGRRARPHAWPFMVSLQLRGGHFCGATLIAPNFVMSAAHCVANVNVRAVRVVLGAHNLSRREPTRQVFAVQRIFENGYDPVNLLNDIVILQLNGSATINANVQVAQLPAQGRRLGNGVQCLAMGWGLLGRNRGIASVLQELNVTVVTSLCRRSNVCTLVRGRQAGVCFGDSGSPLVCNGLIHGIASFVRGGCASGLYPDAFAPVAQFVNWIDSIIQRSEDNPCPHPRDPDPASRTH

SMILES | target | assay | test system | setting | scale | measurement | value
O=C(COCCc1ccccc1)N[C@@H](Cc1cn(CCNC(=O)c2ccc(S[C@@H]3O[C@H](CO)[C@H](O)[C@H](O)[C@H]3O)cc2)nn1)C(=O)NCCO | PA-I galactophilic lectin (lecA, Pseudomonas aeruginosa, UniProt Q05097) | isothermal titration calorimetry |  | concentration not given |  | binding stoichiometry | 1 ± 0.1
O=C(Nc1ccc(C(=O)Nc2ccc(C(=O)Nc3ccc(S(=O)(=O)O)c4cc(S(=O)(=O)O)cc(S(=O)(=O)O)c34)cc2)cc1)Nc1ccc(C(=O)Nc2ccc(C(=O)Nc3ccc(S(=O)(=O)O)c4cc(S(=O)(=O)O)cc(S(=O)(=O)O)c34)cc2)cc1 | Neutrophil elastase (ELANE, Homo sapiens, UniProt P08246) | substrate S-1384 hydrolysis |  | pH 7.4, 37 °C, enzyme 300 nM |  | Vmax | 21.5 ± 1.72 mAU/min
CC(C)C[C@H](NC(=O)[C@@H]1CCCN1C(=O)[C@H](Cc1c[nH]c2ccccc12)NC(=O)[C@H](COP(=O)(O)O)NC(=O)[C@H](CO)NC(=O)[C@H](CS)NC(=O)[C@H](CCCCN)NC(=O)[C@H](CO)NC(=O)CNC(=O)CNC(=O)[C@H](C)N)C(=O)N1CCC[C@H]1C(=O)N[C@@H](CCC(N)=O)C(=O)N1CCC[C@H]1C(=O)N[C@@H](CO)C(=O)O | YWHAZ | binding, ITC |  | pH 7.4, 37 °C, with: phosphorylated PRLR peptide |  | ΔG | -7.91 ± 0.0956 kcal/mol
COc1ccc(CCCN[C@@H]2CCC[C@H]2CN[C@H]2CCC[C@@H]2CNCCCCN[C@H]2CCC[C@@H]2CN)cc1 | Lysine-specific histone demethylase 2 (KDM1B, Homo sapiens, UniProt Q8NB78) | peroxidase-coupled |  |  | baseline: Ki for KDM1B over Ki for LSD1 | selectivity ratio | 4.7
CC(C)=CCC[C@](C)(O)[C@H]1CC[C@]2(C)[C@@H]1[C@H](O)C[C@@H]1[C@@]3(C)CC[C@H](O)C(C)(C)[C@@H]3CC[C@]12C | YWHAZ | isothermal titration calorimetry |  | concentration not given |  | binding enthalpy | -1.93 ± 0.179 kcal/mol
CC[C@H](C)[C@H](NC(C)=O)C(=O)N[C@H]1CSSC[C@@H](C(=O)N[C@H](C(N)=O)[C@@H](C)O)NC(=O)[C@H](CCCNC(=N)N)NC(=O)[C@H](Cc2c[nH]cn2)NC(=O)[C@@H]2CCCN2C(=O)CNC(=O)[C@H](Cc2c[nH]c3ccccc23)NC(=O)[C@H](CC(=O)O)NC(=O)[C@H](CCC(N)=O)NC(=O)[C@H](Cc2cn(C)c3ccccc23)NC(=O)[C@H](C(C)C)NC1=O | Complement C3 (Homo sapiens, UniProt P01024) | isothermal titration calorimetry |  |  | baseline: 1-methyltryptophan reference | -TΔΔS | -1.7 kcal/mol
O=C([O-])CN(CCN(CC(=O)[O-])Cc1cc(CCC(=O)NCCCCCC(=O)NCCCC[C@H](NC(=O)N[C@@H](CCC(=O)O)C(=O)O)C(=O)O)ccc1O)Cc1cc(CCC(=O)O)ccc1[O-].[68Ga+3] | Glutamate carboxypeptidase 2 (FOLH1, Homo sapiens, UniProt Q04609) | PET/CT | prostate cancer patients, lymph nodes metastases |  | baseline: lymph nodes metastases over liver | tumour-to-normal tissue ratio | 8.68 ± 6.92
COc1cc(-c2ncn(/C=C\C(=O)OC(C)C)n2)cc(C(F)(F)F)c1 | Exportin-1 (CRM1, Saccharomyces cerevisiae, UniProt P30822, del377-413/T539C) | NES binding, pull-down |  | 90 min, 4 °C, with: 2 µM protein, 10 µM RanGTP |  | concentration for complete inhibition | 5 µM
O=C(NC1CCCCC1)C(c1cccnc1)N(C(=O)CCl)c1ccc(F)cc1 (racemic) | Glutathione S-transferase omega-1 (GSTO1, Homo sapiens, UniProt P78417) | LC-MS/MS, refers to: active site Cys32 peptide |  | 10 µM, 30 min, GSTO1 50 µM |  | modified species fraction | 99.4%
NC[C@@H]1O[C@H](O[C@H]2[C@@H](O)[C@H](O[C@@H]3[C@@H](O)[C@H](N)C[C@H](N)[C@H]3O[C@H]3O[C@H](CN)[C@@H](O)[C@H](O)[C@H]3N)O[C@@H]2CO)[C@H](N)[C@@H](O)[C@@H]1O | poly(dA)·2poly(dT) triplex | ITC |  | concentration not given, pH 5.5, KCl 140 mM |  | heat capacity change | -87 ± 4 cal/(mol·K)
C=C1CCN2C(=O)COc3cccc(c3)C(CCc3ccc(OC)c(OC)c3)OC(=O)C3CCCCN3C(=O)C(=O)C(C)(C)COC(=O)C(CCOC)NC(=O)C2C1 (centres unmarked) | FKBP1A/MAPRE1 (Homo sapiens, UniProt P62942+Q15691) | FKBP12-MAPRE1 proximity, TR-FRET |  |  | baseline: DMSO | Emax | 51%
